Results of several laboratories.
Each line is one published result; not all experiments were run side by side. “And” joins repeats or separate records; there may be more than shown. ± marks the error that the study gave.

OC1(C(F)(F)F)CCN(c2nc(Nc3ccnc(C(F)(F)F)c3)nc(-c3cccc(C(F)(F)F)n3)n2)C1 (centres unmarked) — MRT(0-inf) (Sprague-Dawley rat, both sexes, plasma; oral gavage, 5 mg/kg): 24.7 ± 1.72 h
COc1ccc2c(c1)CCn1c[n+]3c(c1-2)-c1ccc(OC)cc1CC3 — haemoglobin (female NSG mice, blood; 6 mg/kg, day 20, 5 days per week): 13.9 ± 0.16 g/dL
COc1cc(OCCN2CCOCC2)cnc1-c1nc2cc(OC(F)(F)F)ccc2[nH]1 — Vd/F (Balb/c mouse, female, plasma; oral gavage, 100 mg/kg): 754 mL
CC(C)[C@H](NC(=O)[C@H](Cc1c[nH]c2ccccc12)NC(=O)[C@H](CCCNC(=N)N)NC(=O)[C@H](CCCNC(=N)N)NC(=O)[C@@H](NC(=O)[C@@H](NC(=O)[C@H](CCCNC(=N)N)NC(=O)[C@@H](NC(=O)[C@@H](NC(=O)[C@H](CCCNC(=N)N)NC(=O)[C@H](CCCNC(=N)N)NC(=O)[C@@H](NC(=O)[C@H](Cc1c[nH]c2ccccc12)NC(=O)[C@H](CCCNC(=N)N)NC(=O)[C@H](CCCNC(=N)N)NC(=O)[C@@H](NC(=O)[C@H](CCCNC(=N)N)NC(=O)[C@H](CCCNC(=N)N)NC(=O)[C@@H](NC(=O)[C@H](Cc1c[nH]c2ccccc12)NC(=O)[C@H](CCCNC(=N)N)NC(=O)[C@@H](N)CCCNC(=N)N)C(C)C)C(C)C)C(C)C)C(C)C)C(C)C)C(C)C)C(C)C)C(=O)N[C@@H](CCCNC(=N)N)C(=O)N[C@@H](CCCNC(=N)N)C(=O)O — glucose (CD1 mouse, urine; intravenous, 15 mg/kg, 16 h, [14C]-labelled compound): 82 mg/dL
O=C(Nc1cnccc1-c1ccc([18F])cc1)c1ccnc(NC(=O)C2CC2)c1 — SUV (ex vivo gamma counting; GSK-3β transgenic mice, late-stage, cortex; intravenous, 1.26 MBq/animal, 120 min, mean, no P-gp inhibitor): 0.1
CN([O-])C(=O)CN1CCNCCN(CC(=O)N(C)[O-])CC1.[89Zr+4] — tracer uptake (mouse, blood; intravenous, 1 h): 0.68 %ID/g
Nc1nc(-c2ccccc2)nc2[nH]nc(Nc3ccc(F)cc3)c12 — recovery (plasma; time not given, plasma protein binding): 68%
C=C[C@]1(C)C[C@@H](OC(=O)CSc2ccc(NC(=O)c3ccco3)cc2)[C@]2(C)[C@H](C)CC[C@]3(CCC(=O)[C@H]32)[C@@H](C)[C@@H]1O — peripheral volume (V2/F) (M. gallisepticum-infected chickens, plasma; intramuscular, 80 mg/kg single dose): 3.11 L/kg and 3.12 L/kg
Cc1ccc(OCC(=O)N(Cc2cccs2)c2ccn[nH]2)cc1 — remaining compound (rat plasma; 750 ng/mL, 15 min, 37 °C): 3.8%
Cc1cc(-c2ccc(C(=O)[C@@H]3CCCC[C@H]3C(=O)Nc3cnn4c3C(=O)NCC4)cc2)[nH]n1 — cumulative recovery of radioactivity (human, faeces; oral, 200 mg, 0-240 h; relative to: dose): 79.2%
CCN(CC)c1ccc2c(c1)O[B-]1(c3c(C)cccc3C)OC(=O)C(c3ccccc3)=N[N+]1=C2 (centres unmarked) — molar absorption coefficient (toluene): 52000 M⁻¹ cm⁻¹
CCCCN1C(=O)c2cccc3c(NCCCCN4CCOCC4)ccc(c23)C1=O — molar extinction coefficient (methanol): 7400 M⁻¹ cm⁻¹
Cc1[nH]nc2c1N=C(c1ccccc1Cl)c1cnc(N3CCOCC3)cc1N2 — scaled CLint (metabolic stability; dog, liver microsomes; 1 µM, pH 7.4): 15.9 mL/min/kg
CCCCN1C(=O)c2cccc3c(NCCCCCCN4CCOCC4)ccc(c23)C1=O — fluorescence quantum yield (DMSO): 0.99
C=CC(=O)Nc1cccc(Cn2ncc3cnc(Nc4cnn(CCOC)c4)nc32)c1 — remaining compound (dog, Beagle, both sexes, whole blood; 5 µM, 15 min): 89%
COCC1CN(C2CCN(c3cc(OC)c(Nc4ncc(Br)c(Nc5ccc6c(c5P(C)(C)=O)OCCO6)n4)cc3C)CC2)C1 — Tmax (EGFR-mutant NSCLC patients, plasma; oral, 240 mg single dose, median): 3.98 h
C=C(NC(=O)c1csc(-c2nc3c(cc2O)-c2nc(cs2)C(=O)NC(C(C)O)C(=O)NC(=C(C)OC)c2nc(cs2)C(=O)NC2c4nc(cs4)C(=O)NC(COC(=O)c4c5c6c(cccc6n4O)COC(=O)C(OC4CC(C)(O)C(N(C)C)C(C)O4)C2OC5)c2nc-3cs2)n1)C(N)=O (centres unmarked) — blood clearance (Sprague-Dawley rat, both sexes; intravenous infusion; relative to: hepatic blood flow): 87.3%
C=CC(=O)Nc1cc(Nc2nccc(-c3c[nH]c4ccccc34)n2)c(OC)cc1N(C)CCN(C)C — recovery (human plasma; 24 h, storage stability, LLOQ sample): 55.4%
CCCCN1C(=O)c2cccc3c(NCCCCCN4CCOCC4)ccc(c23)C1=O — molar extinction coefficient (DMSO): 8830 M⁻¹ cm⁻¹
O=C1NC2(CC2)COc2ncc(F)cc2[C@H]2COCCN2c2ccn3ncc1c3n2 — PCE/(PCE+NCE) ratio (bone marrow micronucleus test; NIH mice, male; oral, 20 mg/kg/day, 3 days): 0.507 ± 0.06
COc1cccc(OC)c1-c1cc(C(=O)NC2(C(=O)O)C3CC4CC(C3)CC2C4)nn1-c1ccc(C(=O)N(C)CCCN(C)C(=O)[C@H](CCCCNC(=O)[C@H](CC(C)C)NC(=O)C2OC2C(=O)O)NC(=O)CN2CCN(CC(=O)[O-])CCN(CC(=O)[O-])CCN(CC(=O)[O-])CC2)cc1C(C)C.[177Lu+3] (mixture of isomers) — tumour-to-brain ratio (mouse, HT-29 xenograft; 4 h post injection, biodistribution; relative to: tumour over brain uptake): 105
CC(=O)N([O-])CCCCCNC(=O)CCC(=O)N([O-])CCCCCNC(=O)CCC(=O)N([O-])CCCCCN.[89Zr+4] — intact complex (radio-TLC; aqueous buffer; 1 d, pH 8.5, 37 °C, 89Zr-labelled complex, with: DTPA 1000-fold excess): 98.3 ± 0.7%
O=C1CCC(N2Cc3cc(C(=O)O)c(F)cc3C2=O)C(=O)N1 (centres unmarked) — plasma concentration (CD-1 mice; intravenous, 1 mg/kg, 24 h): not detected
[2H]C([2H])([18F])Oc1cc(C(=O)OCC2CCN(CCCC)CC2)ccc1N — logD7.4 (n-octanol/phosphate buffer; pH 7.4, room temperature, 0.15 M sodium phosphate): 1.54 ± 0.02
CCCCN1C(=O)c2cccc3c(NCCN4CCOCC4)ccc(c23)C1=O — molar extinction coefficient (Dioxane): 7520 M⁻¹ cm⁻¹
CCCC[C@H](OC(C)=O)c1ccccc1C(=O)O — Cmax (Sprague-Dawley rat, both sexes, whole blood; intravenous, 20 mg/kg, single dose): 49300 ± 4000 ng/mL
CC[C@H](C)[C@@H]1NC(=O)[C@H](Cc2ccc(O)cc2)NC(=O)CCCSC[C@@H](C(=O)N(CC(=O)N[C@@H](CC(C)C)C(=O)NCC(N)=O)Cc2ccc(F)cc2)NC(=O)[C@H](CC(N)=O)NC(=O)[C@H](CCC(N)=O)NC1=O — Cmax (healthy human females, plasma; intranasal, 300 µg single dose): 0.153 ng/mL
CC[C@H](C)[C@H](NC(=O)[C@H](CCCCN)NC(=O)[C@H](CCC(=O)O)NC(=O)[C@H](CO)NC(=O)[C@H](Cc1ccccc1)NC(=O)[C@H](CC(C)C)NC(=O)[C@H](CCC(N)=O)NC(=O)[C@H](CO)NC(=O)[C@H](C)NC(=O)[C@H](CCCCN)NC(=O)[C@H](Cc1c[nH]cn1)NC(=O)[C@H](Cc1c[nH]c2ccccc12)NC(=O)[C@H](CCC(N)=O)NC(=O)[C@H](CCCCN)NC(=O)[C@H](CCCCN)NC(=O)[C@H](CC(C)C)NC(=O)CNC(=O)[C@H](C)NC(=O)[C@@H](NC(=O)[C@H](CO)NC(=O)[C@@H](N)CCSC)C(C)C)C(=O)N[C@@H](CO)C(=O)NCC(=O)N[C@@H](C)C(N)=O — fractional helicity (circular dichroism; ~60% TFE): 51.7%
CCC(C(=O)Nc1ccc(C(N)=O)c(F)c1)n1cc(OC)c(-c2cc(Cl)ccc2-n2cc(C(F)(F)F)nn2)cc1=O (centres unmarked) — mild adverse events (healthy male humans; 50 mg, maximum intensity, with: antacid): 14.3%
